Measurements gathered from unrelated publications.
Parts stem from different laboratories: compare values within a part only. Several values in a cell are separate wells, animals, samples, runs or records.
Chain of UniProt Q15759 (whole entry, looked up): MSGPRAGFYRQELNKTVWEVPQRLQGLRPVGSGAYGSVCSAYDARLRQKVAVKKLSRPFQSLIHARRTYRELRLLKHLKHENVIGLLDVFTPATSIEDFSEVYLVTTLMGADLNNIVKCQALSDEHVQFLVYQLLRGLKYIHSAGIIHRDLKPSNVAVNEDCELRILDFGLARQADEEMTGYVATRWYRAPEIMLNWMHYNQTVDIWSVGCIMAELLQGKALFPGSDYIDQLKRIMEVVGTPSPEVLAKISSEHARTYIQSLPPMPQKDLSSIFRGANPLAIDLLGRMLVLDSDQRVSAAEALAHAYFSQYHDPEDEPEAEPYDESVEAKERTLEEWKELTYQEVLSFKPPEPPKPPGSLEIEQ
Chain of UniProt Q8TF76 (whole entry, looked up): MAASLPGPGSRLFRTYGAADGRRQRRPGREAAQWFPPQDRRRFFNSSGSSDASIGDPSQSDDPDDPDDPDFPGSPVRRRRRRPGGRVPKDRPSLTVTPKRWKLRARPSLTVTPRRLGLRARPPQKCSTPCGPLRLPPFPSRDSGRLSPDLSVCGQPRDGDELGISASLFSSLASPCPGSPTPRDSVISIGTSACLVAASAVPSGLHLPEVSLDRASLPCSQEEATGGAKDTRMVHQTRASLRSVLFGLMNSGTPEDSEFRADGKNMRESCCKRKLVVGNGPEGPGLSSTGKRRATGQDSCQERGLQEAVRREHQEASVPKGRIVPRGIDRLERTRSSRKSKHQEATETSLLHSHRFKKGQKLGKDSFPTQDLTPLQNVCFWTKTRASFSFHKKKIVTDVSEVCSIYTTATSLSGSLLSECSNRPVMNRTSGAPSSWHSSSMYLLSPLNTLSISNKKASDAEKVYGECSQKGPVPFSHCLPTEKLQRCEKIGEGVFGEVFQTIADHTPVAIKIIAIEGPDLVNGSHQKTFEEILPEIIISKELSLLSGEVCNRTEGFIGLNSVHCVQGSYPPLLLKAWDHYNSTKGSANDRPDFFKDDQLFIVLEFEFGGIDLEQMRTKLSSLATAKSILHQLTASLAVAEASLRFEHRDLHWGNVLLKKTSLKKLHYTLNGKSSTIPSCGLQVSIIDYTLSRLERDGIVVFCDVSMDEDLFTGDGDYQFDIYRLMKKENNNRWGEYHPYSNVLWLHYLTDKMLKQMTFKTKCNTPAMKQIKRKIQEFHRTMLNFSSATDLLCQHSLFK
Chain of UniProt O15264 (whole entry, looked up): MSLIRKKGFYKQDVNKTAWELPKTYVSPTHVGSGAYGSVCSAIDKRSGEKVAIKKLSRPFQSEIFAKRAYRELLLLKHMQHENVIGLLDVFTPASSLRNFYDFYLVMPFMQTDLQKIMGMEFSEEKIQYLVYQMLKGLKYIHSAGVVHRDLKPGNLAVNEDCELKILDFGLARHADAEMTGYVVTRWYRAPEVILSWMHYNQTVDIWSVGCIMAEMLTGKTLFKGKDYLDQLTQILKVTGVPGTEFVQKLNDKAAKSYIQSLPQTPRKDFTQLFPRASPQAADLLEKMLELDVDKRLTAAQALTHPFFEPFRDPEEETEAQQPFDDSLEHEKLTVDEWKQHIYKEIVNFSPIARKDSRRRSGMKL

Series 1 — cell line: HaCaT; concentration: 100 µM; time: 36 h; endpoint: viability
CN(C)CCOC(C)(c1ccccc1)c1ccccn1 (stereo not shown): 42.5%
CCOC(=O)C1=C(COCCN)NC(C)=C(C(=O)OC)[C@@H]1c1ccccc1Cl: 6.52%
CC(=O)[C@H]1CC[C@H]2[C@@H]3C[C@H](C)C4=CC(=O)CC[C@]4(C)[C@H]3[C@@H](O)C[C@]12C: 53.1%
COc1cc2c(cc1OC)[C@@H]1Cc3ccc(OC)c(OC)c3CN1CC2: 82.9%
COC(=O)CCc1ccc(OCC(O)CNC(C)C)cc1 (stereo not shown): 86.4%

Series 2 — technique: Incucyte 3D growth; concentration: 30 µM; reading: higher = more growth; endpoint: spheroid area
SMILES: CC(C)(C(=O)O)[C@H](NC(=O)Cc1cccc(I)c1)c1ccc2oc(=O)[nH]c2c1
MEL-JUSO; 42.52 h: 8.6e+06 a.u. and 1.02e+07 a.u. and 1.34e+07 a.u. and 1.19e+07 a.u. and 1.11e+07 a.u.
A375; 300.52 h: 1.74e+08 a.u. and 1.97e+08 a.u. and 1.8e+08 a.u. and 2e+08 a.u. and 1.75e+08 a.u.
KP-4; 24 h: 1.2e+07 a.u. and 1.1e+07 a.u. and 1.04e+07 a.u. and 1.24e+07 a.u. and 1.28e+07 a.u.
MEL-JUSO; 468.52 h: 2.17e+07 a.u. and 3.14e+07 a.u. and 5.35e+07 a.u. and 2.51e+07 a.u. and 3.26e+07 a.u. and 7.72e+07 a.u.

Series 3 — Structure (SMILES): CCc1[nH]c(-c2ccc(OC)cc2)nc1-c1ccncc1; read-out: enzyme activity; mode: inhibitor; technique: radiometric; endpoint: IC50
HASPIN (Homo sapiens, UniProt Q8TF76): 0.731 µM
MAPK11 (Homo sapiens, UniProt Q15759): > 30 µM
MAPK13 (Homo sapiens, UniProt O15264): > 30 µM

Other studies, line by line
CC(C)C[C@@H]1NC(=O)[C@H](C)NC(=O)[C@@H](CC(C)C)NC(=O)[C@H](C)NC(=O)[C@H](CC(C)C)NC(=O)[C@H](CC(C)C)NC(=O)[C@H](CC(C)C)NC1=O  logD (1,9-decadiene/PBS; pH 7.4): 0.564

A few entries again (other studies, line by line):
CC(C)C[C@@H]1NC(=O)[C@H](C)NC(=O)[C@@H](CC(C)C)NC(=O)[C@H](C)NC(=O)[C@H](CC(C)C)NC(=O)[C@H](CC(C)C)NC(=O)[C@H](CC(C)C)NC1=O  logD (1,9-decadiene/PBS; pH 7.4): 0.564
